Measured values from different studies.
Each line is one published result; not all experiments were run side by side. Numbers after ± are the reported error.

`CCNc1cc2[o+]c3cc(NCC)c(C)cc3c(-c3ccccc3C(=O)OCCOCC[18F])c2cc1C` gave a tissue uptake of 0.07 ± 0.01 %ID/g (rat, blood; 60 min).
`C[S]1CC[S]2CC[P](CO)(CO)[99Tc+]12.[C-]#[O+].[C-]#[O+].[C-]#[O+]` has a tissue uptake of 26 %ID (CF-1 mice, female, feces; intravenous, 24 h).
For `CN[C@](C)(C[18F])C(=O)O`, the tissue uptake was 7.9 ± 0.9 %ID/g (SCID mouse DU-145 xenograft, spleen; 30 min, post injection).
The tissue uptake of `CN(C)c1ccc(C(=O)NCCCCN2CCN(c3ccccc3O[11CH3])CC2)cc1` is reported as 0.064 %ID/g (male Sprague Dawley rat, fat; iv, 30 min; relative to: untreated).
With `COc1cc2ncnc(Oc3cccc(N[11C](=O)Nc4cc(C(C)(C)C(F)(F)F)on4)c3)c2cc1OC` the tissue uptake was 6.97 ± 0.33 %ID/g (Balb/c nude mouse, female, A375 melanoma xenograft, pancreas; 6.6 MBq, 60 min).
With `CCN(CC)c1ccc2c(-c3ccccc3C(=O)OCCOCC[18F])c3ccc(=[N+](CC)CC)cc-3oc2c1` the tissue uptake was 9.28 ± 0.66 %ID/g (rat, kidney; 60 min).
The tissue uptake of `CCCC[C@H](NC(=O)CN1CCC(NC(=O)CN2CCC(NC(=O)CN3CCN(CC(=O)O)CCN(CC(=O)O)CCN(CC(=O)O)CC3)CC2)CC1)C(=O)N[C@H]1CC(=O)NCCCC[C@@H](C(N)=O)NC(=O)[C@H](Cc2c[nH]c3ccccc23)NC(=O)[C@H](CCCNC(=N)N)NC(=O)[C@@H](Cc2ccccc2)NC(=O)[C@H](Cc2c[nH]cn2)NC1=O` [gallium-68 labelled] is reported as 2.8 ± 3.8 %ID/g (C57BL/6J mice male B16-F10 tumour, stomach; 1 h post injection, unblocked).
`CC(C)C[C@@H](NC(=O)[C@@H](CCCNC(=N)N)NC(=O)[C@@H](Cc1c[nH]cn1)NC(=O)[C@@H](Cc1c[nH]c2ccccc12)NC(=O)[C@@H](Cc1c[nH]cn1)NC(=O)[C@@H](Cc1ccccc1)NC(=O)[C@H](NC(=O)[C@@H](Cc1ccc(O)cc1)NC(=O)CNC(=O)CNC(=O)CCOCCOCCOCCNC(=O)CN1CCN(CC(=O)O)CCN(CC(=O)O)CC1)[C@H](C)O)C(=O)N[C@H](CC(N)=O)C(=O)N1CCC[C@@H]1C(=O)O` [gallium-68 labelled] gave a tissue uptake of 0.66 ± 0.17 %ID/g (male C57BL/6 mice, tumour; intravenous, 1.85 MBq, 60 min, with: GP12 blocking).
For `COc1ccc(C)cc1NC(=O)OC1CC2CCCC(C1)N2Cc1ccc(CC[18F])cc1` (stereo not drawn), the tissue uptake was 1.92 ± 0.51 %ID/g (BALB/c mice, EMT6 tumour, muscle; 1 h).
For `O=C(O)CC[C@H](NC(=O)O[C@@H](CCCCNC(=O)c1ccc([18F])cc1)C(=O)O)C(=O)O`, the tissue uptake was 2.51 ± 1.75 %ID/g (mouse, PC-3 PIP/flu xenografts, blood; 30 min).
For `N=C(N)NCc1ccc(C(=O)NCCCC[C@H](NC(=O)N[C@@H](CCC(=O)O)C(=O)O)C(=O)O)cc1[211At]`, the tissue uptake was 4.37 ± 2.96 %ID/g (SCID mouse, PC-3 xenografts, liver; 4 h).
The tissue uptake of `CCN(CC)c1ccc2c(-c3ccccc3C(=O)OCCC[18F])c3ccc(=[N+](CC)CC)cc-3oc2c1` is reported as 0.2 ± 0.07 %ID/g (rat, skin; 60 min).
For `N=C(N)NCc1ccc(C(=O)NCCCC[C@H](NC(=O)CCCCCCC(=O)NCCCC[C@H](NC(=O)N[C@@H](CCC(=O)O)C(=O)O)C(=O)O)C(=O)O)cc1[211At]`, the tissue uptake was 1.03 ± 0.26 %ID/g (SCID mouse, PC-3 xenografts, thyroid; 2 h).
For `C=Cc1cc(O)cc2nc(-c3ccc(O)c([76Br])c3)oc12`, the tissue uptake was 0.36 ± 0.09 %ID/g (female C57BL/6 mouse, liver; 3 h, high dose).
`N=C(N)NCc1ccc(C(=O)NCCCC[C@H](NC(=O)CCCCCCC(=O)NCCCC[C@H](NC(=O)N[C@@H](CCC(=O)O)C(=O)O)C(=O)O)C(=O)O)cc1[131I]` gave a tissue uptake of 0.11 ± 0.13 %ID/g (SCID mouse, PC-3 xenografts, thyroid; 1 h).
With `O=C(c1ccc(F)cc1)C1CCN(C2Cc3c(cccc3OCC[18F])CC2O)CC1` (single isomer, unassigned; (-)) the tissue uptake was 0.357 ± 0.068 %ID/g (Sprague-Dawley rat, male, heart; intravenous, dose not given, 60 min).
`COc1ccc(NC(=O)Cn2c(=O)c3ccccc3n(CC(=O)Nc3cc([125I])c(OC)cc3OC)c2=O)cc1` gave a tissue uptake of 0.07 ± 0.02 %ID/g (Wistar rat (normal), fat; intravenous, 0.08333 h).
`N=C(N)NCc1ccc(C(=O)NCCCC[C@H](NC(=O)N[C@@H](CCC(=O)O)C(=O)O)C(=O)O)cc1[131I]` gave a tissue uptake of 0.03 %ID/g (SCID mouse, PC-3 xenografts, brain; 14 h).
